# Values quoted from earlier work that unrelated publications cite.
# Protocols differ between the studies behind these lines. ± gives the spread as reported.
# Organism: SARS-CoV-2
SMILES,read-out,method,cells,tested at,measurement,value
C=C(CC)C(=O)c1ccc(OCC(=O)Nc2cccc3cn(C)nc23)c(Cl)c1Cl,viral replication,,,,EC50,4.8 µM
CCn1ccc(-c2cc(-c3cnn(C)c3)cc([C@@H](C)NC(=O)c3cc(OCCN(C)C)ccc3C)c2)n1,,,,,EC50,0.42 µM
Cc1ccc(NC2CNC2)cc1C(=O)N[C@H](C)c1cccc(-c2ccc(CN3CCCC3)s2)c1,viral replication,,,,EC50,1.2 µM
N#Cc1ccccc1-c1cc(-c2cc(Cl)cc(OCC3CC3)c2)c(=O)n(-c2cccnc2)c1,viral replication,,,,EC50,2 ± 0.7 µM
O=C(Oc1cncc(Cl)c1)c1cccc2[nH]ccc12,,,Vero E6,concentration not given,antiviral activity,active
Cc1ccc(N)cc1C(=O)N[C@H](C)c1cccc2ccccc12,viral replication,,Vero E6,,IC50,35.4 ± 15 µM
O=C(c1cccc(Cn2[se]c3ccccc3c2=O)c1)N1CCOCC1,viral replication,RT-qPCR,Vero,,EC50,3.74 µM
CN1CCN(C(=O)N[C@@H](Cc2ccccc2)C(=O)N[C@H](/C=C/S(=O)(=O)c2ccccc2)CCc2ccccc2)CC1,cytopathic effect,,,,EC50,0.62 µM
"O=C(OC1Cc2c(O)cc(O)cc2OC1c1cc(O)c(O)c(O)c1)c1cc(O)c(O)c(O)c1 (single isomer, unassigned; (-))",viral replication,,,,IC50,44.4 µM
Cc1ccc(N)cc1C(=O)N[C@H](C)c1cccc2ccccc12,,,,,EC50,38 µM
N#Cc1ccccc1C[C@@H](N)C(=O)N[C@H](Cc1ccc(Cl)cc1Cl)C(=O)N[C@H](CC(=O)O)Cc1ccc(F)cc1,antiviral activity,,,,EC50,40 µM
C[C@@H](NS(=O)(=O)c1cccc(N)c1)c1cccc2ccccc12,,,,,EC50,64 µM
Cc1ccc(N)cc1C(=O)N[C@H](C)c1cccc2ccccc12,viral replication,,,,EC50,~20 µM

# For quick reference, copied from above:
SMILES,read-out,method,cells,tested at,measurement,value
Cc1ccc(N)cc1C(=O)N[C@H](C)c1cccc2ccccc12,,,,,EC50,38 µM
